Experimental data from different studies.
Numbered parts are unrelated; each lists some results of a single study.

Series 1
Target: Fragile X messenger ribonucleoprotein 1, C-terminal low-complexity region (Fmr1, Mus musculus, UniProt P35922)
Method: RNA Bind-n-Seq
Molecule type: RNA
Medium: in vitro
Concentration: 200 nM
Notes: whole 134-nt RNA, ends assumed
Added: 150 mM LiCl
Baseline: input library
Reading: higher = stronger binding
All molecules: 7-deaza-guanosine replaces G
| Strand | log2 enrichment |
| --- | --- |
| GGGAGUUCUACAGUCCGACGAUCAAGUCCUGUGCUACACAUCGUAUGUACCGAAUCGGCCCCGGGGCCCCGGGGCCCCGGAAAGUAUUAUGUUACGCCGUUCGGAUCUGCACUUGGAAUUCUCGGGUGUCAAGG | -2.13 |
| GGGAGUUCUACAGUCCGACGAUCAAGUCCUGUGCUACACAUCGUAUGUACCGAAUCGGUUUGGAAAAAAAGGAAAAAGGAAAGUAUUAUGUUACGCCGUUCGGAUCUGCACUUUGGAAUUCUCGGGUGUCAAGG | -2.01 |
| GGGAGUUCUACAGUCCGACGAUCUGGGACGUGGAUUUUGUUUAUUUUUUUAGCUCAUUUCCAGGGGUGGGAAUUUUUUUUUAAUAUGUGUCAUGAAUAAAGUUGUUUUUGAAAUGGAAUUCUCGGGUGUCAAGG | 1.34 |
| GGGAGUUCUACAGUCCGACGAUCCCUGUGCUACACAUCGUAUGUACCGAAUCGGGGUUUUUUGGGUUUUUUGGGGUUUUUUGGAAAGUAUUAUGUUACGCCGUUCGGAUCUGCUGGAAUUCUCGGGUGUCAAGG | 0.297 |
| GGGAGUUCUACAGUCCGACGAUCCCUCAAGUCCUGUGCUACACAUCGUAUGUACCGAAUCGGGGCGGCGGGCGGGAAAGUAUUAUGUUACGCCGUUCGGAUCUGCACUUCCAGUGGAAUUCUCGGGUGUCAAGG | -1.07 |
| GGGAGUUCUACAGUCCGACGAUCUCAAGUCCUGUGCUACACAUCGUAUGUACCGAAUCGGGGUGGGGUGGGGAGGGGAAAGUAUUAUGUUACGCCGUUCGGAUCUGCACUUCCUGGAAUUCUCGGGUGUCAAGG | -0.673 |

Series 2
Target: RNA binding protein fox-1 homolog 2, RRM domain, GST-SBP tag (RBFOX2, Homo sapiens, UniProt O43251-10, residues 100-194)
Method: RNA Bind-n-Seq
Molecule type: RNA
Medium: in vitro
Concentration: 365 nM
Notes: natural RNA segment, single round, ends assumed
Baseline: no-protein control
Reading: higher = stronger binding
| Strand | RBNS enrichment (R) |
| --- | --- |
| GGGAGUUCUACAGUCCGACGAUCUAAGGUAAGGACGGCCGUGUUUUGAGGGUCUUCCUUUCCUAUGAGUGCUUUUUCUUUUCUUCUGUUCAAAGAGGUCAUAUUACAAGGUUUUUUGAAAUUGUGAAUUCUAAUGGAAUUCUCGGGUGCCAA | 1.29 |
| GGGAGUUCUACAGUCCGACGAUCAACGCUGACUUAGGCACUCAGAGACAUACGCCUCUUGCGGAUGCUGCAAAGCCCUGGAAGCCUGUGACUUAAAAGUCCGGAGAGGGUGGCAAUUGCUUCCUCGAAGACAUUGGAAUUCUCGGGUGCCAA | 0.43 |
| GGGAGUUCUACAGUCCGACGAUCUUCAAAGAGGUGAACAUUAAAAUAUAGAGACAGGACAGAAUGUGUUCUUUUCUCCUUUACCAGUCCUAUUUUUCAAUGGGAAGACUCAGGAGUCUGCCACUUGUCAAAGAUGGAAUUCUCGGGUGCCAA | 0.957 |
| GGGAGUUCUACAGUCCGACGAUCCUGACCCUGAAGGAGUGGUGCUGCCAGGCCUGUCCUGGCUUUCUGGGGUGUGCUGGGAGGAUUACCAAGGCCCCCUUUUUUUGUGCCCUCUUGAAUCCAAGUGUCUGUAGUGGAAUUCUCGGGUGCCAA | 0.767 |
| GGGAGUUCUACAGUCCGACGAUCCUCAUAAGAAGCAAUAAAUGCAUAAAGCAUUAUAUUAAAAUACCAGGGUUACUUAUGUCAUUGACAGGGAAAAGACUUUGUAUAAACAAUUAUGCACCAUCUAUUUUUGUUGGAAUUCUCGGGUGCCAA | 0.421 |
| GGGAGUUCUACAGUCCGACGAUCUGGGUUAGAGUCCUGUGCUGGCCUGCCAUGGCAGCUGGCUACCUUCCAGACCAACUGUAGAGAUACCUGGCAUUUUGAAGAAAGCCUAGACUGGAGAGCAGGGCCUCUCUUGGAAUUCUCGGGUGCCAA | 0.847 |
| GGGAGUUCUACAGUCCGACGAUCAAGCUGCGUUCUCCCAGACGCCUUAACAGCAGUCCCCGCACCCCCAUCAGCCCCCUCAAGUUCUCUCCCUUUGAGGGGUUCCGGCCCAGUCCCGGCCCACCAGAGCCCAUUGGAAUUCUCGGGUGCCAA | 0.653 |

Series 3
Target: Histone acetyltransferase KAT6A, winged helix 1, GST fusion (KAT6A, Homo sapiens, UniProt Q92794, residues 1-85)
Method: protein binding microarray
Molecule type: double-stranded DNA, one strand shown
Medium: in vitro
Concentration: not given
Notes: 8-mer, flanks averaged, mean of 2 arrays, mostly near background
Baseline: not given
Reading: higher = stronger binding
Target sequence (chain): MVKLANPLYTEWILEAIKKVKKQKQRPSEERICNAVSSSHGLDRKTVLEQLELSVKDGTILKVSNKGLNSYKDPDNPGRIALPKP
| Strand | E-score |
| --- | --- |
| CCTTCTGA | -0.145 |
| ACTTCGGA | -0.0853 |
| TACACTCA | -0.296 |
| AGAAGTAG | -0.123 |
| GTCTCCGA | 0.0649 |
| GAAATAGC | 0.0136 |
| GAACTCAC | -0.188 |
| ACTCTGCA | -0.27 |

Mixed results
| Molecule | target | assay | system | conditions | how to read | endpoint | result |
| --- | --- | --- | --- | --- | --- | --- | --- |
| PhoQ, residues 284 288 289 292 302 303 HSYLQF | PhoP, residues 12 14 15 18 19 LHATL (Escherichia coli, UniProt P23836) | Sort-seq, refers to: YFP reporter | E. coli | PhoQ-PhoP variant library, added: 10 µM Mg2+ | baseline: high Mg2+ state, higher = stronger signaling | fold induction | 2.07 |

For quick reference, copied from above (series 2):
| Strand | RBNS enrichment (R) |
| --- | --- |
| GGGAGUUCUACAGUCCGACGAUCAACGCUGACUUAGGCACUCAGAGACAUACGCCUCUUGCGGAUGCUGCAAAGCCCUGGAAGCCUGUGACUUAAAAGUCCGGAGAGGGUGGCAAUUGCUUCCUCGAAGACAUUGGAAUUCUCGGGUGCCAA | 0.43 |
| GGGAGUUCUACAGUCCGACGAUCUUCAAAGAGGUGAACAUUAAAAUAUAGAGACAGGACAGAAUGUGUUCUUUUCUCCUUUACCAGUCCUAUUUUUCAAUGGGAAGACUCAGGAGUCUGCCACUUGUCAAAGAUGGAAUUCUCGGGUGCCAA | 0.957 |
